Assay results collected from several papers.
Every numbered part comes from another study and shows a few of its results, in no order. Positions count from the first letter of the parent shown.

Block 1
Target: Eukaryotic initiation factor 4A-I (EIF4A1, Homo sapiens, UniProt P60842, residues 1-406, full length assumed)
Chain of UniProt P60842 (whole entry, looked up): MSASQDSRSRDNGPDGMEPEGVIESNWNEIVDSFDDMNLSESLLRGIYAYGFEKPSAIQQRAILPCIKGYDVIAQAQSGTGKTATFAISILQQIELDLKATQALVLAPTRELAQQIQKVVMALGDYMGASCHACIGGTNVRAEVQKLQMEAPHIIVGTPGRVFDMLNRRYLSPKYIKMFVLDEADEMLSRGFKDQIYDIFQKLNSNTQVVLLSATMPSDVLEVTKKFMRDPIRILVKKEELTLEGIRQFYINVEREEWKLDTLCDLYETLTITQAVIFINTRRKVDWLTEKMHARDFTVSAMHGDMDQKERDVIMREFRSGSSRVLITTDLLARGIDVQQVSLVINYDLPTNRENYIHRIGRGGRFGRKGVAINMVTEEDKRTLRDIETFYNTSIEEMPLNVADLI
Technique: RNA Bind-n-Seq
Form: RNA
Sample: in vitro
Concentration: 15 pmol
Setting: 4-mer, random 30-nt RNA, single round
Together with: DMSO vehicle, 2 mM AMP-PNP
Reference: input library
Direction: higher = stronger binding
For `CGAA`, the 4-mer enrichment was 1.11 fold.
For `CUCU`, the 4-mer enrichment was 1.11 fold.
`UUGU` gave a 4-mer enrichment of 0.679 fold.
`GAGG` gave a 4-mer enrichment of 1.35 fold.
For `GUAA`, the 4-mer enrichment was 0.757 fold.
`GCCG` has a 4-mer enrichment of 1.47 fold.
`GACG` has a 4-mer enrichment of 1.46 fold.
With `CCCU` the 4-mer enrichment was 1.64 fold.

Block 2
Target: Interferon regulatory factor 7, full length, phosphomimetic (IRF7, Homo sapiens, UniProt Q92985, residues 1-503, S471D/S472D/S475D/S476D/S477D/S483D/S484D/S487D)
Chain of UniProt Q92985 (whole entry, unmodified, looked up): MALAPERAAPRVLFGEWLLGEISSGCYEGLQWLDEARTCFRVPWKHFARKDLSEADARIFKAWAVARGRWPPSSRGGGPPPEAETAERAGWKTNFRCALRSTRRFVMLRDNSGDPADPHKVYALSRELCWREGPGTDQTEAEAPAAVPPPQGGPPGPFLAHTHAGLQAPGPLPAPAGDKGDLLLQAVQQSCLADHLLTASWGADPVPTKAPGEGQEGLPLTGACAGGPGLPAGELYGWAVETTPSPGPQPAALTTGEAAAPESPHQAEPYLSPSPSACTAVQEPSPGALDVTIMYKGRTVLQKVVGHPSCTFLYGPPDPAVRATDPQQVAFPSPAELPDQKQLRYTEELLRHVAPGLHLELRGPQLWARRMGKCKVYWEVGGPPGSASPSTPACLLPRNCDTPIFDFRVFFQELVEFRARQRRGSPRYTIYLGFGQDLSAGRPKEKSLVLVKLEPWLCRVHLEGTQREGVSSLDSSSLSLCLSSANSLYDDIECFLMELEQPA
Technique: protein-binding microarray
Form: double-stranded DNA, one strand shown
Sample: in vitro
Concentration: 2200 nM top
Setting: 60-bp whole probe
Together with: salmon DNA 0.4 mg/ml
Reference: random background probes
Direction: higher = stronger binding
Shared flanks, not repeated: GCCTAGCAC … GTCTTGATTCGCTTGACGCTGCTG
`ATAGGTCTCGGTATCGGTTAGTGCTAG`: “fitted relative affinity” 1.09 z-score.
Under “fitted relative affinity”, `GACGGTCTCGGACTGGGGATGTGCTAG` is recorded as -0.446 z-score.
`TTATATATCGGGTATCGATTAGTGCTA`: “fitted relative affinity” 0.382 z-score.
`TTCTGATTGAATCTCCCATTGTGCTAG` — result for “fitted relative affinity”: 0.959 z-score.
Under “fitted relative affinity”, `TTAGGACTGAACTTTCGGTTAGTGCTA` is recorded as 5.63 z-score.
`CACGGACTGGGACTGGGGACGTGCTAG`: “fitted relative affinity” -0.83 z-score.
`TTAGGTATCCTACTGCTTGAGTGCTAG`: “fitted relative affinity” 0.585 z-score.
For `GGTCCTCTCTCTATTCAGAGGTGCTAG`, “fitted relative affinity” read 1.07 z-score.

Other studies, line by line
HLA class I histocompatibility antigen, A alpha chain allele A*25:01: HLA class I histocompatibility antigen, A alpha chain, allele A*25:01 (Homo sapiens, UniProt P04439)
P1: viral docking peptide; KGVKRKLFAEDSS; partner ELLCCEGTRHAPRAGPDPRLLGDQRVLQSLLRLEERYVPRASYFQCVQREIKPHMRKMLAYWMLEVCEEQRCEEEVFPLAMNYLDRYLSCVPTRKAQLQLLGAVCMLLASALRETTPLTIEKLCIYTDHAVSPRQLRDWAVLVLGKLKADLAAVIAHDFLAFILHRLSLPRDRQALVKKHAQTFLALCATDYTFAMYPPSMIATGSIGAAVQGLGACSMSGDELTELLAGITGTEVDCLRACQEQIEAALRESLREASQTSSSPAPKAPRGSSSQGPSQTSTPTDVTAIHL
For `FGAAVSLLF`, binding read “inactive” (HLA class I histocompatibility antigen, A alpha chain allele A*25:01; peptide-MHC binding; peptide; concentration not given).
`P1 K4T` — result for “normalised enrichment score”: -0.119 (CCND3, cyclin fold, Cln2 fusion (human); yeast growth competition, sequencing; yeast; weak parent motif; reference: not given, higher = stronger binding).
`FGAQMGWPV` — result for binding: “inactive” (HLA class I histocompatibility antigen, A alpha chain allele A*25:01; peptide-MHC binding; peptide; concentration not given).

Excerpt of the above (block 1):
`GACG` has a 4-mer enrichment of 1.46 fold.
